Results collected from several papers.
Each numbered part is a random draw from the data of one study; scales do not carry over between parts.

Block 1 — technique: aptamer microarray, sandwich; form: DNA with 2'F-ANA; sample: in vitro; tested at: 200 nM; added: Cy3 exosite-II aptamer, 400 nM; direction: higher = stronger binding; oligonucleotide: GGTTGGTGTGGTTGG
Target: Prothrombin, mature alpha-thrombin (F2, Homo sapiens, UniProt P00734)
Setting: whole 15-mer aptamer, many near background
Modification | mean fluorescence intensity
2'F-ANA at 2 3 4 5 12 13 14 15 | 73.5 a.u.
2'F-ANA at 5 6 11 12 13 15 | 80.2 a.u.
2'F-ANA at 1 2 3 5 7 9 11 12 15 | 97.2 a.u.
2'F-ANA at 2 3 4 5 6 7 8 11 12 13 | 108 a.u.
2'F-ANA at 5 6 8 11 15 | 61.7 a.u.
2'F-ANA at 6 7 8 11 14 | 204 a.u.
2'F-ANA at 1 6 8 10 12 15 | 86.6 a.u.
2'F-ANA at 3 4 5 6 7 8 11 12 13 15 | 115 a.u.
2'F-ANA at 2 3 4 12 14 | 413 a.u.
2'F-ANA at 2 3 4 6 10 | 255 a.u.
2'F-ANA at 2 3 5 9 12 13 | 162 a.u.
2'F-ANA at 1 2 5 6 7 8 9 | 66.5 a.u.
2'F-ANA at 2 3 4 5 11 13 | 63.9 a.u.
2'F-ANA at 3 5 7 10 11 12 13 14 | 55.1 a.u.
2'F-ANA at 6 8 11 14 15 | 177 a.u.
2'F-ANA at 1 2 3 5 8 10 12 14 15 | 54.7 a.u.
2'F-ANA at 2 3 4 11 13 | 437 a.u.
2'F-ANA at 1 2 6 7 8 10 11 14 | 47.3 a.u.
2'F-ANA at 3 6 7 9 10 11 13 14 | 310 a.u.
2'F-ANA at 1 3 4 5 6 7 8 9 10 11 12 | 56.1 a.u.

Block 2 — technique: universal PBM; form: double-stranded DNA, one strand shown; sample: in vitro; tested at: 600 nM; direction: higher = stronger binding
Target: Sal-like protein 4, full length isoform A (SALL4, Homo sapiens, UniProt Q9UJQ4, residues 1-1053)
Sequence of UniProt Q9UJQ4 (whole entry, looked up): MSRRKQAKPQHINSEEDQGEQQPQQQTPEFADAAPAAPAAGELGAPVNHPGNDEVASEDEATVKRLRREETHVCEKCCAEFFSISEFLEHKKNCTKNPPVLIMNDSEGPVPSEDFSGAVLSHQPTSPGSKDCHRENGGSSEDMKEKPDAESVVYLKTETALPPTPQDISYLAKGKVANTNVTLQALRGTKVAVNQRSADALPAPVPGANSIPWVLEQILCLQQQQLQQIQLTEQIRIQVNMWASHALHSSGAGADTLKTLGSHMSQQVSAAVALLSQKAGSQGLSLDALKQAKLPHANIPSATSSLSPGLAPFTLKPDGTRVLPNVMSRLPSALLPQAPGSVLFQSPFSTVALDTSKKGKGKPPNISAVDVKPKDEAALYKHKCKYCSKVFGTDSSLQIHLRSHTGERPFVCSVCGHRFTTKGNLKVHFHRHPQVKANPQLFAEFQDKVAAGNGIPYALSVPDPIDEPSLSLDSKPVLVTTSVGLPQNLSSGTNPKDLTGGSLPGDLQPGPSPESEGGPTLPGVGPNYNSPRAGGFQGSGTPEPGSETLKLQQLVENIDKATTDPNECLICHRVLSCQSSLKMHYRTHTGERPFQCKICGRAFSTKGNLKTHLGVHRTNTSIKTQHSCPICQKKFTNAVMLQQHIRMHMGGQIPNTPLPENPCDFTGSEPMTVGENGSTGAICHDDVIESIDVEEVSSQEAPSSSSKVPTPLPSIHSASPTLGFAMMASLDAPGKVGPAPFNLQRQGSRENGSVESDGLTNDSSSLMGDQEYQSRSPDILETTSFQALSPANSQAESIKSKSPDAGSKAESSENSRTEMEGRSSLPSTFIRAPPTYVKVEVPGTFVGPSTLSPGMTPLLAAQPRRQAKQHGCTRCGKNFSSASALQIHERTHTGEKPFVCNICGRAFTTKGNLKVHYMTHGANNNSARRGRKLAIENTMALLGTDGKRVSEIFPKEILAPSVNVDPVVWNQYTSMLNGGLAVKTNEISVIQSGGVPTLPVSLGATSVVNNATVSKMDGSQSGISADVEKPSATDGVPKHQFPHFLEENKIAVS
Setting: 8-mer, flanks averaged, mean of replicates
Oligonucleotide | E-score
CCGCGTTC | -0.251
CAGTTCCC | -0.294
TACTTGAA | 0.281
CGGCCACA | -0.217
ACAAAGCC | -0.0961
GTTCGACA | 0.00552
ACCATGCC | -0.154
ACGAACTC | -0.0745
TGCAACAA | 0.153
AGGCTCTG | -0.233
AGGGCGCG | -0.291
CGGCGCTA | -0.288
AGAAAACC | -0.00101
CGATTAAG | 0.208
CTTTTGAC | 0.115
GTAATGTA | 0.229
ACTCGGTG | -0.209
GTCGAGAA | 0.0497
GAATTAGA | 0.192
ACCATAAA | 0.34
ACAAAACC | 0.0597
ATGCTTCC | -0.0393
CTCCAGAG | -0.224
AAATCTGC | 0.0886
TAGACCAA | 0.129

Block 3 — technique: RNA Bind-n-Seq; form: RNA; sample: in vitro; tested at: 365 nM; reference: no-protein control; direction: higher = stronger binding
Target: RNA binding protein fox-1 homolog 2, RRM domain, GST-SBP tag (RBFOX2, Homo sapiens, UniProt O43251-10, residues 100-194)
Setting: natural RNA segment, single round, ends assumed
Constant ends, left off below: GGGAGUUCUACAGUCCGACGAUC … UGGAAUUCUCGGGUGCCAA
Construct (chain): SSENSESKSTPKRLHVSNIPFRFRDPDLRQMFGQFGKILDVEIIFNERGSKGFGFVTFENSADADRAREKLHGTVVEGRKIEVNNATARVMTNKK
Oligonucleotide | RBNS enrichment (R)
GUGUUGGAAGGAGUGGCCUGGCCAGGCAGGUUGAUGUAAGGCUAUGGGAGACCCAAGGGGAACACAUGCUGCCUCUGCUGAAAGACCCUGGGUUUUUCUUGGAAGAAAGG | 0.776
UGGCGUGAUGCUUCGGGAGCCUCGAAGAAUCUAUGAAUGAAAUAGAAGUGUUAACUGUUGUUGGCAGUGUAAUAUAAAACUACCAUCUACAGCCACCAAAGGAAAGCAUC | 1.4
UAUAUUUUGUUCUUCAUAGUCUGUUUUUUCUAGCAUGCUUGAUUUAGGAGAGAAUAAAGGGCUAUAUAAUAAUAAAUCCAGAUUUCCGGAUAAGAAUAUUGCCUGGUUAA | 50
AGUUUUAAUGCCAUUAGUUGUCAUGAAAGAAGUUAGUGUGCUCUCUGUAAUAAAUGUGCCUCUGAGGAACAUUCCUCCUUCCUAGAGGAGGGCUCUAAGAGGAACCAUCU | 0.284
GAGUGAUCCCAUUUCUUAAUCAGUGUAGCCCCAAGAAGGCUGGGGCUAUUUACCAGGGUAGAAAAAGGAGCUUACCUCCCACCUUUGGUCCUAAGUCCCUGCCCCCUCCC | 0.417
AUAUUCUUUUUUAAAUGCGGAUUUUCAAAACAUAUUUCCUUUCCAGUGUCCCUUUUGUGUCUGGCUUGCUGAGUAUAGAAGCUGUCACCUGGACGAUUCUGCUCCUCAGC | 0.751
CCAUGAAGAGGGCCGUGGUGAGUUCCCGAGAAUUGUCUCUCUUUCAGCAGAGAGGUGAGGGACUCAGACAUAUAUCUAAGUUGAAUAGCAUCCCCAUCGCAGCUGUAAGA | 0.63
UUGCUGUCACUGGUCAUAUGGCCAGCAAGUGCAGAGAAACAAGAAACAAAUGUGCCCACCCCACCUUCCACUUAAAGAAAAAAAAUCUCAAAAUAAAUUUCUGAAUUAUG | 0.275

Block 4 — technique: DNA-protein interaction ELISA; form: double-stranded DNA, one strand shown; sample: in vitro, bacterial lysate; tested at: not given; setting: whole dsDNA probe, crude lysate protein; reference: highest signal in screen; direction: higher = stronger binding
Target: Probable WRKY transcription factor 33, N-terminal DNA-binding domain (WRKY33, Arabidopsis thaliana, UniProt Q8S8P5, residues 169-264)
Residues (chain): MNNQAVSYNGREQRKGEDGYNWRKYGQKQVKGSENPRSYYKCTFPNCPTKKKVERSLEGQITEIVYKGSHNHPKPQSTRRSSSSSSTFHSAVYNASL
Oligonucleotide | relative absorbance
AAAAAATCCTATCTTGGCTTTGGCCTAAAA | 22.9 % of maximum
AAAAAACTAACCGTCGCAGGCGTGTGAAAA | 22 % of maximum
AAAAAAGATTGACTCGTCTTACTCGAAAAA | 100 % of maximum
AAAAAATAGTACCGCTAATGGCTGACAAAA | 22.1 % of maximum
AAAAAATATCTGATCCAATTTAGGTCAAAA | 24.3 % of maximum
AAAAAATCGGGGATCCGGGCGGTTGCAAAA | 22.1 % of maximum
AAAAAAGTCCCGCGCTAAGCTTTAAAAAAA | 29.4 % of maximum
AAAAAACCCATCCTTCGTTCCATCGTAAAA | 22.7 % of maximum
AAAAAATTAGCTTATCCTTGCTTGTGAAAA | 26.4 % of maximum
AAAAAAGTCTAAGGACTTATAGCTGTAAAA | 43.1 % of maximum
AAAAAACTGTGTCCCCGTCCCATCTCAAAA | 20.2 % of maximum
AAAAAACCCCAGATTTCCAGCAGTTCAAAA | 21.1 % of maximum
AAAAAAGAGAATTGTCAGTGCCCAACAAAA | 24.4 % of maximum
AAAAAAACTCAACTAGTGAACCACCAAAA | 21.7 % of maximum
AAAAAATCGCGTCCGTGCTCAATCCAAAAA | 21.6 % of maximum
AAAAAACTCCCTCTCCTCTGTCTTCCAAAA | 22.2 % of maximum
AAAAAAGGGTTTAGATGTCCTTCAAAAAAA | 19.6 % of maximum
AAAAAATGGTACTCAGAGTTATAGACAAAA | 22.8 % of maximum
AAAAAATAAGTAACCGAACGAAACTCAAAA | 23 % of maximum
AAAAAAGGTTGGTACGTCGAGTTCTTAAAA | 15.5 % of maximum
AAAAAAGTTTCTGCTTTCCCTTTCGTAAAA | 24.2 % of maximum
AAAAAAAGTCTGCGGCTGCAGGGCGGAAAA | 21.4 % of maximum
AAAAAACTCGTACATCTATCGCTACGAAAA | 23.3 % of maximum
AAAAAAAAAAAAAAAAAAAAAAAAAAAAAA | 18.1 % of maximum
AAAAAAGCTCGTCTCCGCCTCCTGCTAAAA | 21.3 % of maximum
